Measured values gathered from unrelated publications.
Protocols differ between the studies behind these lines. ± marks the error that the study gave.
Organism: Plasmodium falciparum

Compound | test | test system | setting | IC50 [µM]
COc1ccc(C2CC(=O)C3=C(C2)NC(C)=C(C(=O)OC(C)C)C3c2ccccc2C)cc1OC (stereo not drawn) | male gamete formation | stage V gametocytes | 24 h, compound carried over | 0.086
FC(F)(F)c1ccc(N2CCN(c3ccc(Nc4ccnc5cc(Cl)ccc45)cc3)CC2)cc1 | parasite growth, SYBR Green | DD2 | 72 h, drug-resistant strain, blood stage | 0.095
C[C@H]1[C@@H](O)O[C@@H]2O[C@@]3(C)CC[C@H]4[C@H](C)CC[C@@H]1[C@@]24OO3 | parasite growth, flow cytometry | 3D7 | 48 h, blood stage | 0.00569
COC1=CC(c2ccc[nH]2)=N/C1=C\c1[nH]c(Cc2ccc(Cl)cc2)cc1Cc1ccc(Cl)cc1 | parasite growth | D6 | 72 h | < 0.0083
CNC(=O)C1Cc2c([nH]c3ccccc23)C(c2ccc(Cl)cc2Br)N1 (stereo not drawn) | parasite growth | Dd2 | – | 0.34 ± 0.06
CN1CCN(c2ccc(Nc3ccnc4cc(Cl)ccc34)cc2)CC1 | parasite growth, SYBR Green | D6 | 72 h, blood stage | 0.014
COc1cc(/C=C/C(C)=O)ccc1OCc1cn(-c2ccnc3cc(Cl)ccc23)nn1 | parasite growth | D10 | blood stage | 0.8
Clc1ccc2c(Nc3ccc(C4CN(Cc5ccccc5)CCO4)cc3)ccnc2c1 (stereo not drawn) | parasite growth, SYBR Green | DD2 | 72 h, drug-resistant strain, blood stage | ≥ 0.25
CCN(CC)CCCC(C)Nc1ccnc2cc(Cl)ccc12 (stereo not drawn) | parasite growth | 3D7 | – | > 12
O=C(CCCCCONC(=O)c1ccco1)NO | parasite growth | HN12, NF54 | 72 h, gametocyte | ≤ 1
CCOC(=O)C1=C(C)NC2=C(C(=O)CC(c3ccc(OC)c(OC)c3)C2)C1c1ccccc1Cl (stereo not drawn) | male gamete formation | stage V gametocytes | 24 h, compound washed out | 0.264
C=C(C)[C@@H]1CC[C@]2(CO)CC[C@]3(C)[C@H](CC[C@@H]4[C@@]5(C)CC[C@H](O)[C@@](C)(CO)[C@@H]5CC[C@]43C)[C@@H]12 | parasite growth | Dd2 drug-resistant | 72 h | 1.33 ± 0.37
CCNC(=O)C1Cc2c([nH]c3ccccc23)C(c2ccc(Cl)cc2Cl)N1 (stereo not drawn) | parasite growth | Dd2 | – | ~5
CCCCN(CCCC)CC(O)c1cc(Cl)cc2c1-c1ccc(Cl)cc1/C2=C/c1ccc(Cl)cc1 (stereo not drawn) | parasite growth | – | drug-resistant strain, blood stage | 0.003
CCOC(=O)C(=CNc1ccc2c(c1)OCO2)C(=O)OCC | parasite growth, [3H]hypoxanthine incorporation | NF54 (chloroquine-sensitive) | – | 23.4
Clc1ccc2c(Nc3ccc(N4CCCCC4)cc3)ccnc2c1 | parasite growth, SYBR Green | DD2 | 72 h, drug-resistant strain, blood stage | 0.2
CN(C)C(=N)N=C(N)N | parasite growth | 3D7 | 48 h, blood stage | 1320
CC(C)CN1CCC(c2ccc(Nc3ccnc4cc(Cl)ccc34)cc2)CC1 | parasite growth, SYBR Green | D6 | 72 h, blood stage | 0.007
C[C@H]1[C@@H](OCC(=O)CO)O[C@@H]2O[C@@]3(C)CC[C@H]4[C@H](C)CC[C@@H]1[C@@]24OO3 | parasite growth | D6 | 72 h, blood stage | < 0.01
CCOC(=O)CSC(=S)Nc1ccc(Cl)cc1 | parasite growth, [3H]hypoxanthine incorporation | NF54 (chloroquine-sensitive) | – | > 34.5
Clc1ccc2c(Nc3ccc(C4COCCN4Cc4ccccc4)cc3)ccnc2c1 (stereo not drawn) | parasite growth, SYBR Green | DD2 | 72 h, drug-resistant strain, blood stage | ≥ 0.25

Excerpt of the above:
Compound | test | test system | setting | IC50 [µM]
CCN(CC)CCCC(C)Nc1ccnc2cc(Cl)ccc12 (stereo not drawn) | parasite growth | 3D7 | – | > 12
O=C(CCCCCONC(=O)c1ccco1)NO | parasite growth | HN12, NF54 | 72 h, gametocyte | ≤ 1
CCOC(=O)C1=C(C)NC2=C(C(=O)CC(c3ccc(OC)c(OC)c3)C2)C1c1ccccc1Cl (stereo not drawn) | male gamete formation | stage V gametocytes | 24 h, compound washed out | 0.264
